Experimental data pooled from the literature.
Every numbered part comes from another study and shows a few of its results, in no order.

Block 1
Target: Sal-like protein 4, full length isoform A (SALL4, Homo sapiens, UniProt Q9UJQ4, residues 1-1053)
Sequence of UniProt Q9UJQ4 (whole entry, looked up): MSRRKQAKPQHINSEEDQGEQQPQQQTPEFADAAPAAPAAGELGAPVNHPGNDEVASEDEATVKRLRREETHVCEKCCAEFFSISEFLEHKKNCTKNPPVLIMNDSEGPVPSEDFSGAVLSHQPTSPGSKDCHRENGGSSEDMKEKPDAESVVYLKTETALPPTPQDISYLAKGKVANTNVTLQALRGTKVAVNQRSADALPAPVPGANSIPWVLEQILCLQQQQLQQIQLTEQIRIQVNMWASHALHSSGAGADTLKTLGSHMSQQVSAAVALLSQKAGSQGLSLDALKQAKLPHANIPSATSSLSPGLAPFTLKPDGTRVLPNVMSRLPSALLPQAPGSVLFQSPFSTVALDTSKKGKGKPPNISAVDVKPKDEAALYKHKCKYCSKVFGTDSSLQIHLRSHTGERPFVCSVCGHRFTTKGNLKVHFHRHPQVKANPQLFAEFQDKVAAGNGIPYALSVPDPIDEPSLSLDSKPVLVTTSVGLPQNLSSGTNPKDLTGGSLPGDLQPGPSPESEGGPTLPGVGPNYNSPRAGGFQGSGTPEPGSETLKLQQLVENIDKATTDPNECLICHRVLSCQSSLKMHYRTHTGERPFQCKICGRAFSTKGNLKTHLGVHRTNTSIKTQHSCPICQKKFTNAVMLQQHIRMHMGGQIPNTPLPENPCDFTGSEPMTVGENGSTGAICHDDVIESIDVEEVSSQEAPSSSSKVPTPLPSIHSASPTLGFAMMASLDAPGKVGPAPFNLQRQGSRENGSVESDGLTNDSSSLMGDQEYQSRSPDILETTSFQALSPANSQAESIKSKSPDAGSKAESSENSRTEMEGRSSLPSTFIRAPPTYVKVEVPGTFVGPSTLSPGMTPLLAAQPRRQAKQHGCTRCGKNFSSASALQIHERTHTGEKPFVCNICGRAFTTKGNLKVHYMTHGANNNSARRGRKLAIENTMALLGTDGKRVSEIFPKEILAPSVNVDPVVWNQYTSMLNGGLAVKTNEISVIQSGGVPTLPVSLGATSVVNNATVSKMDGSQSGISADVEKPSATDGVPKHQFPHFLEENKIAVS
Technique: universal PBM
Form: double-stranded DNA, one strand shown
Matrix: in vitro
Tested at: 600 nM
Setting: 8-mer, flanks averaged, mean of replicates
Direction: higher = stronger binding
For `GCCAGCCC`, the E-score was -0.325.
For `CTTGGAGA`, the E-score was -0.0482.
With `TCGCGAAA` the E-score was -0.0854.
`AGCCACCG` has an E-score of -0.224.
`GGCCTCAC` has an E-score of -0.318.

Block 2
Target: RING finger protein unkempt homolog, zinc fingers 1-6, GST-SBP tag (UNK, Homo sapiens, UniProt Q9C0B0, residues 30-357)
Sequence of UniProt Q9C0B0 (30-357, looked up): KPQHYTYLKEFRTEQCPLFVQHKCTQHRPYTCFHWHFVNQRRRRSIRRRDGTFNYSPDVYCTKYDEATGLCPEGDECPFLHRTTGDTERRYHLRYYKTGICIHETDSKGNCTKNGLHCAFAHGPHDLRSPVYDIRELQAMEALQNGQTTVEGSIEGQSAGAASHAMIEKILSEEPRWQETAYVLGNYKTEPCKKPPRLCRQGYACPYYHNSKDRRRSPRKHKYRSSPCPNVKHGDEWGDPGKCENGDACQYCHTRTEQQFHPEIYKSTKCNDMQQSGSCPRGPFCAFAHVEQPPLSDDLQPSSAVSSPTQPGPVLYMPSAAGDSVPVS
Technique: RNA Bind-n-Seq
Form: RNA
Matrix: in vitro
Tested at: not given
Setting: RNA with constant flanks, human and mouse sites, ends assumed
Relative to: input RNA pool
Direction: higher = stronger binding
For `GGGAGUUCUACAGUCCGACGAUCCCUGACACUCGGCGCUUCCGAUUUGCCCUCCCUUCACCCCAGCACAUCCUGGGCCUUCCUAUUGGCCAACACAUCUACCUCUCGACUAGGAUCGAUGGCAACUUGGUCAUUCGGCCCUACCAACAGAGGAUUGAGCAUCA`, the bound/input enrichment was 0.336 ratio.
`GGGAGUUCUACAGUCCGACGAUCGAUUAUUGUCAUAAGAAGAACUUUUUGCAUAGAGAUAUUAAAUGUUCAAAUAUCCUUCUAAAUAAUAGAGGACAGAUAAAACUUGCAGAUUUUGGACUUGCUCGUUUAUAUAGCUCAGAACAACAGAGGAUUGAGCAUCA` has a bound/input enrichment of 4.59 ratio.
For `GGGAGUUCUACAGUCCGACGAUCGCAGACAGUGACCCAUUUUCAACUGACACUUUGAGUUCACGCCCUCUCAGUGAGACAAGAAGUGAUUUCUGUCCCUCUUCCAGUGACCUUGACUCAGCUGGCCAGGACCCCAGUGCCAAUCAACAGAGGAUUGAGCAUCA`, the bound/input enrichment was 0.136 ratio.
`GGGAGUUCUACAGUCCGACGAUCUUUUAAACUUCUUUUUUUUAAUUUAAUUUUUUCCUUUCAGGGGUAAAGUUUGCUUUACCAAAUAGUGAUUGUAACAGAUUGAUCUGUUUUGGAUGUUGCUAUAGUGACAUGCAGUUCUAUCAACAGAGGAUUGAGCAUCA` gave a bound/input enrichment of 24.7 ratio.

Block 3
Target: Prothrombin, mature alpha-thrombin (F2, Homo sapiens, UniProt P00734)
Technique: aptamer microarray, sandwich
Form: DNA with 2'F-ANA
Matrix: in vitro
Tested at: 200 nM
Setting: whole 15-mer aptamer, many near background
Added: Cy3 exosite-II aptamer, 400 nM
Direction: higher = stronger binding
Strand: GGTTGGTGTGGTTGG
For `2'F-ANA at 2 3 4 5 7 8 9 12 13 15`, “mean fluorescence intensity” read 120 a.u.
`2'F-ANA at 2 3 4 5 6 7 8 9 10 11 12 13 14` — result for “mean fluorescence intensity”: 51.7 a.u.
`2'F-ANA at 1 2 3 6 8 9 10 12 15` — result for “mean fluorescence intensity”: 84 a.u.
`2'F-ANA at 1 2 4 5 7 11 12` — result for “mean fluorescence intensity”: 74.6 a.u.
`2'F-ANA at 2 3 4 5 6 7 8 11 13 14`: “mean fluorescence intensity” 49.6 a.u.

Further values, each from its own experiment
For `PhoQ, residues 284 288 289 292 302 303 GANMMA`, the fold induction was 2.67 (PhoP, residues 12 14 15 18 19 SMASL (Escherichia coli, UniProt P23836); Sort-seq, item: YFP reporter; E. coli; PhoQ-PhoP variant library, added: 10 µM Mg2+; relative to: high Mg2+ state, higher = stronger signaling).

A few entries again (block 3):
`2'F-ANA at 1 2 4 5 7 11 12` — result for “mean fluorescence intensity”: 74.6 a.u.
`2'F-ANA at 2 3 4 5 6 7 8 11 13 14`: “mean fluorescence intensity” 49.6 a.u.
